Experimental data of several laboratories.
Parts stem from different laboratories: compare values within a part only.

Series 1 — method: protein binding microarray; molecule type: double-stranded DNA, one strand shown; matrix: in vitro; tested at: not given; reference: not given; reading: higher = stronger binding
Target: Histone acetyltransferase KAT6A, winged helix 1, GST fusion (KAT6A, Homo sapiens, UniProt Q92794, residues 1-85)
Notes: 8-mer, flanks averaged, mean of 2 arrays, mostly near background
Construct (chain): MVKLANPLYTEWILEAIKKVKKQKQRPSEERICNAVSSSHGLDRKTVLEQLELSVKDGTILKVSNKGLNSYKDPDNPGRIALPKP
With `CCGGGCGA` the E-score was 0.247.
For `CGAGTCCC`, the E-score was 0.182.
For `CTAGGTCA`, the E-score was -0.166.
`AGTACCTC` has an E-score of -0.113.
`GGTCAAGA` gave an E-score of -0.181.
`CCGCCTGC` gave an E-score of 0.275.
With `GTCTGGCA` the E-score was -0.159.
The E-score of `GCGCAGCC` is reported as 0.312.

Series 2 — method: RNA Bind-n-Seq; molecule type: RNA; matrix: in vitro; tested at: 1 µM; notes: whole 134-nt RNA, ends assumed; with: 150 mM KCl; reference: input library; reading: higher = stronger binding
Target: Ras GTPase-activating protein-binding protein 1, C-terminal RGG region (G3BP1, Homo sapiens, UniProt Q13283)
Chain of UniProt Q13283 (whole entry, looked up): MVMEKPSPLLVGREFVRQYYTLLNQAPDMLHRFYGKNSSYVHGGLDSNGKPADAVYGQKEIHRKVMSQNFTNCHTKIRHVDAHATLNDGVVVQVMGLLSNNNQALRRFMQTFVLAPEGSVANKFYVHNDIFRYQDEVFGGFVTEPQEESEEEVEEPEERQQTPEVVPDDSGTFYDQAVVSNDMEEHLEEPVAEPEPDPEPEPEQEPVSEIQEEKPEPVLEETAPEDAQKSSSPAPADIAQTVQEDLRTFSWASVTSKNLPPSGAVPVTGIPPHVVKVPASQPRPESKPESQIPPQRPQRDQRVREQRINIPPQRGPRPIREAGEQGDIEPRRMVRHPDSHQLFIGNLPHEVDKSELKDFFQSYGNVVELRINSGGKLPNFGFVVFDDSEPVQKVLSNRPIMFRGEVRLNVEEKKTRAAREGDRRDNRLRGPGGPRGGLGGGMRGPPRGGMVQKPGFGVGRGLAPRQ
Shared flanks, not repeated: GGGAGUUCUACAGUCCGACGAUC … UGGAAUUCUCGGGUGUCAAGG
`CCUGUGCUACACAUCGUAUGUACCGAAUCGGGGAAAAAGGGGAAAAAGGGGUUUUUGGGGAAAGUAUUAUGUUACGCCGUUCGGAUCUGC` has a log2 enrichment of 1.
For `GCAGGAAGUAAAAAUAAAUGGAAAUGCUUCGGAUAGUGGCAGGGGUGGGGGUUGCUAAGGAAAGGGUGGGAUGGGAGUGGGUAAAGAGUU`, the log2 enrichment was 1.32.
The log2 enrichment of `CCUCAAGUCCUGUGCUACACAUCGUAUGUACCGAAUCGGGGCGGGCGGGCGGGAAAGUAUUAUGUUACGCCGUUCGGAUCUGCACUUCCA` is reported as 1.75.
With `AAGUCCUGUGCUACACAUCGUAUGUACCGAAUCGGGGUUUUUGGGGAGGGGAGGGGAAAGUAUUAUGUUACGCCGUUCGGAUCUGCACUU` the log2 enrichment was 2.58.
`GCAGGAAGUAAAAACAAAUGGAAAUGCUUCGGAUAGUGGCAGGGGUGGGGGUUGCUAAGGAAAGGGUGGGAUGGGAGUAAAUAAAGAGUU` gave a log2 enrichment of 1.76.
`AGUCCUGUGCUACACAUCGUAUGUACCGAAUCAAAUUUAAACCCCCAAACCCCCAAAAAAGUAUUAUGUUACGCCGUUCGGAUCUGCACU` has a log2 enrichment of -0.962.
`CUUCUUGCAUGCUCGGCUCCGGACAGCUACGCUUCGGCAUGACGCAGACGGGCAGGCCACCCUGUUGAACCUCCUGCUGCGGAAUUACCU` gave a log2 enrichment of -0.815.
`AGUCCUGUGCUACACAUCGUAUGUACCGAAUCGGGAGGGAAAAAAAGGGAAAAAGGGAAAGUAUUAUGUUACGCCGUUCGGAUCUGCACU` gave a log2 enrichment of 0.00591.

Series 3 — method: protein-binding microarray; molecule type: double-stranded DNA, one strand shown; matrix: in vitro; tested at: 2200 nM top; notes: 60-bp whole probe; with: salmon DNA 0.4 mg/ml; reference: random background probes; reading: higher = stronger binding; shared flanks, not repeated: GCCTAGCAC … GTCTTGATTCGCTTGACGCTGCTG
Target: Interferon regulatory factor 7, full length, phosphomimetic (IRF7, Homo sapiens, UniProt Q92985, residues 1-503, S471D/S472D/S475D/S476D/S477D/S483D/S484D/S487D)
Target sequence (chain): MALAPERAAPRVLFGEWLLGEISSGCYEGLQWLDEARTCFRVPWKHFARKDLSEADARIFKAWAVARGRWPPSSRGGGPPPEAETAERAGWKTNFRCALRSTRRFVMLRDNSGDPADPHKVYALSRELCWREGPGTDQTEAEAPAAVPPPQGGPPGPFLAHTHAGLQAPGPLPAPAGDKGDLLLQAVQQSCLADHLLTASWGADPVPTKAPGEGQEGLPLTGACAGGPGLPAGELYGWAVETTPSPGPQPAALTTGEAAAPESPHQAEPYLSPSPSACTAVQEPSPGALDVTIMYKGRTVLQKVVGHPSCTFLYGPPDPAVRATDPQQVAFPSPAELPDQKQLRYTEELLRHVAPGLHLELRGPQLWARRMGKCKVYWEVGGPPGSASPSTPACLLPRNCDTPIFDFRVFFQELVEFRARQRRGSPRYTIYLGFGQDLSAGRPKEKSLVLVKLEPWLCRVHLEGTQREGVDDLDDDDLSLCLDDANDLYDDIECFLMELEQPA
`TCACCCCTTGCTTTCCAACTGTGCTAG` — result for “fitted relative affinity”: 2.16 z-score.
`TCAGAGTTCTGTTGCAAACTGTGCTAG`: “fitted relative affinity” 0.0717 z-score.
For `TTAGATTTTGGGACTGGATTAGTGCTA`, “fitted relative affinity” read -0.264 z-score.
`TCACCTCCAGGTTCTCTGACTGTGCTA` — result for “fitted relative affinity”: 0.981 z-score.
`TTAGGTCGCGGTCTCGGTTAGTGCTAG` — result for “fitted relative affinity”: 0.357 z-score.
`TTAGATCTCAGTCTCGTTTAGTGCTAG` — result for “fitted relative affinity”: 0.97 z-score.
Under “fitted relative affinity”, `GACGAACTGAGTCTCGAGAGGTGCTAG` is recorded as -0.128 z-score.
`GTAGGTTTCGGGACTGGGTTAGTGCTA` — result for “fitted relative affinity”: 3.03 z-score.

Series 4 — cell line: HEK-293T; observed: pseudovirus infection; organism: VSV pseudotyped with SARS-CoV-2 spike; tested at: 10 µM; time: 16 h; reference: vehicle-treated
Nc1nc(NC2CC2)c2ncn([C@H]3C=C[C@@H](CO)C3)c2n1 gave a GFP-positive cells of 69.2%.
With O=C(NC1CCN(CCCCC2(C(=O)NCC(F)(F)F)c3ccccc3-c3ccccc32)CC1)c1ccccc1-c1ccc(C(F)(F)F)cc1 the GFP-positive cells was 22.1%.
COc1c(N2CCNC(C)C2)c(F)cc2c(=O)c(C(=O)O)cn(C3CC3)c12 (stereo not drawn) has a GFP-positive cells of 81.7%.
C[C@@H](c1nc(-c2ccc(C#N)cc2)cs1)[C@](O)(Cn1cncn1)c1cc(F)ccc1F gave a GFP-positive cells of 104%.
CCN(CC)C(=O)[C@@]1(c2ccccc2)C[C@H]1CN gave a GFP-positive cells of 77.4%.

Series 5 — observed: enzyme activity; mode: inhibitor; tested at: 20 µM; notes: hit confirmation, no DTT
Target: Replicase polyprotein 1ab, main protease (rep, Severe acute respiratory syndrome coronavirus 2, UniProt P0DTD1)
C[C@@H](CN1CC(=O)NC(=O)C1)N1CC(=O)NC(=O)C1 has an inhibition of 98.6%.
C/N=c1/nc(-c2ccccc2)n(-c2ccccc2)s1 gave an inhibition of 100%.
C[C@H](NC(=O)/C(C#N)=C/c1cccc(Br)n1)c1ccccc1 gave an inhibition of 92.3%.

Series 6 — mode: inhibitor; tested at: 20 µM
Target: Replicase polyprotein 1ab, nsp13 helicase (rep, Severe acute respiratory syndrome coronavirus 2, UniProt P0DTD1)
NC(N)=NC(N)=Nc1ccccc1 has an inhibition of 2.88%.
For [2H]C([2H])([2H])C(=O)Nc1c(I)c(C(=O)O)c(I)c(C(=O)NC)c1I, the inhibition was -0.96%.
For CC[C@H](C)[C@@H]1NC(=O)[C@H](Cc2ccc(OC)cc2)NC(=O)CCCSC[C@@H](C(=O)N2CCC[C@H]2C(=O)N[C@@H](CC(C)C)C(=O)NCC(N)=O)NC(=O)[C@H](CC(N)=O)NC(=O)[C@H](CCC(N)=O)NC1=O, the inhibition was 6.14%.
For NCCc1c[nH]c2ccc(O)cc12, the inhibition was 1.01%.
C=C(C)[C@@H]1CC[C@]2(C(=O)O)CC[C@]3(C)[C@H](CC[C@@H]4[C@@]5(C)CC[C@H](O)C(C)(C)[C@@H]5CC[C@]43C)[C@@H]12 gave an inhibition of 3.14%.
For Cc1ccc(-c2ncc(Cl)cc2-c2ccc(S(C)(=O)=O)cc2)cn1, the inhibition was 7.39%.
For CC1(C)S[C@@H]2[C@H](NC(=O)COc3ccccc3)C(=O)N2[C@H]1C(=O)O, the inhibition was -0.6%.
COCCNC(=O)Cn1cnc([N+](=O)[O-])n1 gave an inhibition of 2.72%.
For Nc1ncnc2c1c(-c1cccc(OCc3ccccc3)c1)cn2[C@H]1C[C@@H](CN2CCC2)C1, the inhibition was 0.82%.
CCOc1c(N2CCOCC2)cnn(C)c1=O has an inhibition of 3.75%.
CC(=O)O[C@]1(C(C)=O)CC[C@H]2[C@@H]3CCC4=CC(=O)CCC4=C3[C@@H](c3ccc(N(C)C)cc3)C[C@@]21C gave an inhibition of 11%.
The inhibition of Nc1nccc(/C=C/c2ccccc2)n1 is reported as -1.98%.
CCCNCC(O)COc1ccccc1C(=O)CCc1ccccc1 (stereo not drawn) gave an inhibition of 21.6%.
The inhibition of COc1cc(C(=O)O)ccc1NC(=O)[C@@H]1N[C@@H](CC(C)(C)C)[C@](C#N)(c2ccc(Cl)cc2F)[C@H]1c1cccc(Cl)c1F is reported as 0.07%.
O=C(O)CCC(=O)OC[C@@H](NC(=O)C(Cl)Cl)[C@H](O)c1ccc([N+](=O)[O-])cc1 gave an inhibition of -2.32%.
For c1ccc(N2CCN(CCCOc3ccc4c(c3)OCO4)CC2)cc1, the inhibition was 4.88%.
CCCCCCCCCCCCCCCCOc1nc2ccc(C)cc2c(=O)o1 gave an inhibition of 1.27%.
The inhibition of CCCS(=O)(=O)Nc1ccc(F)c(C(=O)c2c[nH]c3ncc(Cl)cc23)c1F is reported as 11.7%.
With C/C=C(/C(=C/C)c1ccc(O)cc1)c1ccc(O)cc1 the inhibition was 7.99%.
For OCCCCO, the inhibition was 5.13%.
The inhibition of Nc1nc(NC2CC2)cc(-c2cccc(Cl)c2Cl)n1 is reported as -0.68%.
COC1=C[C@@H]2[C@@H]3Cc4ccc(OC)c(O)c4[C@]2(CCN3C)CC1=O gave an inhibition of 3.36%.
With CCn1cc(C(=O)O)c(=O)c2cnc(N3CCCC3)nc21 the inhibition was 7.06%.
For CC(C)(O)C(=O)Nc1ccc([N+](=O)[O-])c(C(F)(F)F)c1, the inhibition was 4.56%.
For CN[C@@H](C)C(=O)N[C@H](C(=O)N1CCC[C@H]1C(=O)N[C@H]1c2ccccc2C[C@H]1OCC#CC#CCO[C@@H]1Cc2ccccc2[C@@H]1NC(=O)[C@@H]1CCCN1C(=O)[C@@H](NC(=O)[C@H](C)NC)C1CCCCC1)C1CCCCC1, the inhibition was 12.9%.

Excerpt of the above (series 6):
CCOc1c(N2CCOCC2)cnn(C)c1=O has an inhibition of 3.75%.
CC(=O)O[C@]1(C(C)=O)CC[C@H]2[C@@H]3CCC4=CC(=O)CCC4=C3[C@@H](c3ccc(N(C)C)cc3)C[C@@]21C gave an inhibition of 11%.
The inhibition of Nc1nccc(/C=C/c2ccccc2)n1 is reported as -1.98%.
CCCNCC(O)COc1ccccc1C(=O)CCc1ccccc1 (stereo not drawn) gave an inhibition of 21.6%.
The inhibition of COc1cc(C(=O)O)ccc1NC(=O)[C@@H]1N[C@@H](CC(C)(C)C)[C@](C#N)(c2ccc(Cl)cc2F)[C@H]1c1cccc(Cl)c1F is reported as 0.07%.
O=C(O)CCC(=O)OC[C@@H](NC(=O)C(Cl)Cl)[C@H](O)c1ccc([N+](=O)[O-])cc1 gave an inhibition of -2.32%.
For c1ccc(N2CCN(CCCOc3ccc4c(c3)OCO4)CC2)cc1, the inhibition was 4.88%.
CCCCCCCCCCCCCCCCOc1nc2ccc(C)cc2c(=O)o1 gave an inhibition of 1.27%.
